Experimental data of several laboratories.
“And” joins repeats or separate records; there may be more than shown. ± gives the spread as reported.
PTH1R: Parathyroid hormone/parathyroid hormone-related peptide receptor (PTH1R, Homo sapiens, UniProt Q03431)
Sequence of UniProt Q03431 (whole entry, looked up): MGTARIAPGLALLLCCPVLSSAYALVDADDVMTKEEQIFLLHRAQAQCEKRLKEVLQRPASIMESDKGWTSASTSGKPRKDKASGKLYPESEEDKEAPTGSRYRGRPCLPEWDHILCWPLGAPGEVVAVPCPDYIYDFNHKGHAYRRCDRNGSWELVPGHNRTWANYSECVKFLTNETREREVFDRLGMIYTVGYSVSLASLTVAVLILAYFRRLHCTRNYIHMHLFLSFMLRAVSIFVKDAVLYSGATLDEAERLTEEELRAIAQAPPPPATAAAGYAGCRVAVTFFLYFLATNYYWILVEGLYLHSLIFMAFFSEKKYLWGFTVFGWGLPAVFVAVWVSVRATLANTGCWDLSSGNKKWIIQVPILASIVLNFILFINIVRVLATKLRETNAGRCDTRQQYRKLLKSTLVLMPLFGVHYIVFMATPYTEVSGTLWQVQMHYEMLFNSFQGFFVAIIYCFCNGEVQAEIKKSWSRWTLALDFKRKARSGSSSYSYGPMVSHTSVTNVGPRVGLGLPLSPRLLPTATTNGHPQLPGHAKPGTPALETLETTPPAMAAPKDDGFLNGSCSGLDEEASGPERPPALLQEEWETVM
B4GALT1: Beta-1,4-galactosyltransferase 1 (B4GALT1, Homo sapiens, UniProt P15291)
Sequence of UniProt P15291 (whole entry, looked up): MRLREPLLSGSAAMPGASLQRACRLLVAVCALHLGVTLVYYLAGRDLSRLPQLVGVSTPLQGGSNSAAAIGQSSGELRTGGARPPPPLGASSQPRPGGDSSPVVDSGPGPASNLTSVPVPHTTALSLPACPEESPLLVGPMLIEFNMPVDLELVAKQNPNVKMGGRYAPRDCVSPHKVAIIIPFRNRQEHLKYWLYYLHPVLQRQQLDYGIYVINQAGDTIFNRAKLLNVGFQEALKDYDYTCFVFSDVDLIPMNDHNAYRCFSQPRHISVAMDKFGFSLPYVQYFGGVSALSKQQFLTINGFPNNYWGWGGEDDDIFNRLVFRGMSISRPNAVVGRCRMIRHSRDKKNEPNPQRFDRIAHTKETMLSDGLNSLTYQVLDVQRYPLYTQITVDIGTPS
CASP3: Caspase-3 (CASP3, Homo sapiens, UniProt P42574)
Sequence of UniProt P42574 (whole entry, looked up): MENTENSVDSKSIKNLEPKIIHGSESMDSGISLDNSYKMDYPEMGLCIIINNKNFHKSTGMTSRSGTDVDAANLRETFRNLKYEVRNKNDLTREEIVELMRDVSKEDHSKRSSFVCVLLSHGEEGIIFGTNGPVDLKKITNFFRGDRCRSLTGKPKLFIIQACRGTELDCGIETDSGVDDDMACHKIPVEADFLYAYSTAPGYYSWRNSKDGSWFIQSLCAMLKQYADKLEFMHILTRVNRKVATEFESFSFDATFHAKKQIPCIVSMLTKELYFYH
GBA2: Beta-glucosidase (GBA2, Homo sapiens, UniProt Q9HCG7)
Sequence of UniProt Q92633 (whole entry, looked up): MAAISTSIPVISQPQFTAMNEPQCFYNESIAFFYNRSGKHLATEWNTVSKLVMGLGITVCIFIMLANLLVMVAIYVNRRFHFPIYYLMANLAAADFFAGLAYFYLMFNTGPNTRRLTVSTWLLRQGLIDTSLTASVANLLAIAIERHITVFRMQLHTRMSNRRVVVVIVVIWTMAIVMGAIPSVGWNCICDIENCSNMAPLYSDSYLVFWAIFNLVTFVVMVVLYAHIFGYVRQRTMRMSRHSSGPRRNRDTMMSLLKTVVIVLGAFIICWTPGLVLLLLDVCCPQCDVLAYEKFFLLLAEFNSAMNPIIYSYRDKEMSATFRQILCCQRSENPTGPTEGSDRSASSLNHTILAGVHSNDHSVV
Sequence of UniProt P04818 (whole entry, looked up): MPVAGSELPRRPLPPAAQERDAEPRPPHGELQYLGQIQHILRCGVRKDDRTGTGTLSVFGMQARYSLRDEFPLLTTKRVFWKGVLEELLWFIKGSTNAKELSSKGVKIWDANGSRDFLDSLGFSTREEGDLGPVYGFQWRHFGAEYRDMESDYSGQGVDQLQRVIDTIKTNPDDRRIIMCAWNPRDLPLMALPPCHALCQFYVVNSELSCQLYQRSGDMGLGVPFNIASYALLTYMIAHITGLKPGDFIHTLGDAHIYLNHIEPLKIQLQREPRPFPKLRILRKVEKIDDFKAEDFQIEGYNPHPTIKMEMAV
Sequence of UniProt Q9HCG7 (whole entry, looked up): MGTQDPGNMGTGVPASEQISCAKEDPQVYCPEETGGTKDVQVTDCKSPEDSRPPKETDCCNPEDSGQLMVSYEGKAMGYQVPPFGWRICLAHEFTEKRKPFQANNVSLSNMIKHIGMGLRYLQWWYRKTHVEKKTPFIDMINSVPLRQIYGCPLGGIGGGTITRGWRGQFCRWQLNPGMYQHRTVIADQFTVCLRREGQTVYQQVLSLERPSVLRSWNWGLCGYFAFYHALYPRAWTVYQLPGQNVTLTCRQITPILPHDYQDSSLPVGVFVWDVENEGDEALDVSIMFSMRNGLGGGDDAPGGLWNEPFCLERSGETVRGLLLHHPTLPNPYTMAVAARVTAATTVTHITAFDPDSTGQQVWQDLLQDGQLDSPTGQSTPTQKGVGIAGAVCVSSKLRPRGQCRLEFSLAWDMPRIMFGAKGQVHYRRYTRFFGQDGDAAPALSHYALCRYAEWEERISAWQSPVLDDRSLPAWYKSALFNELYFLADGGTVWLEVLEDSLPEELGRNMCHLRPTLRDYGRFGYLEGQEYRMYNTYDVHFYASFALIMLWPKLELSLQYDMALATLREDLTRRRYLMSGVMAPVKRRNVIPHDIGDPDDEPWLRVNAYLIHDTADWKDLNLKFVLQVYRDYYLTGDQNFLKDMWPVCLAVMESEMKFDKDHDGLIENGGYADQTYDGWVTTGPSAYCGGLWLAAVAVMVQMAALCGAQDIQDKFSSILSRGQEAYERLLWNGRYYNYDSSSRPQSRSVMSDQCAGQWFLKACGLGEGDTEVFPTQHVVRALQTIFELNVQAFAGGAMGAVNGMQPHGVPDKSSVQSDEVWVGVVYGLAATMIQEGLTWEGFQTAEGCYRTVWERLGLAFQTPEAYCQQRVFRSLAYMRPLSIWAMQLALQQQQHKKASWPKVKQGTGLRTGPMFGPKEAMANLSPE
Sequence of UniProt P05067 (whole entry, looked up): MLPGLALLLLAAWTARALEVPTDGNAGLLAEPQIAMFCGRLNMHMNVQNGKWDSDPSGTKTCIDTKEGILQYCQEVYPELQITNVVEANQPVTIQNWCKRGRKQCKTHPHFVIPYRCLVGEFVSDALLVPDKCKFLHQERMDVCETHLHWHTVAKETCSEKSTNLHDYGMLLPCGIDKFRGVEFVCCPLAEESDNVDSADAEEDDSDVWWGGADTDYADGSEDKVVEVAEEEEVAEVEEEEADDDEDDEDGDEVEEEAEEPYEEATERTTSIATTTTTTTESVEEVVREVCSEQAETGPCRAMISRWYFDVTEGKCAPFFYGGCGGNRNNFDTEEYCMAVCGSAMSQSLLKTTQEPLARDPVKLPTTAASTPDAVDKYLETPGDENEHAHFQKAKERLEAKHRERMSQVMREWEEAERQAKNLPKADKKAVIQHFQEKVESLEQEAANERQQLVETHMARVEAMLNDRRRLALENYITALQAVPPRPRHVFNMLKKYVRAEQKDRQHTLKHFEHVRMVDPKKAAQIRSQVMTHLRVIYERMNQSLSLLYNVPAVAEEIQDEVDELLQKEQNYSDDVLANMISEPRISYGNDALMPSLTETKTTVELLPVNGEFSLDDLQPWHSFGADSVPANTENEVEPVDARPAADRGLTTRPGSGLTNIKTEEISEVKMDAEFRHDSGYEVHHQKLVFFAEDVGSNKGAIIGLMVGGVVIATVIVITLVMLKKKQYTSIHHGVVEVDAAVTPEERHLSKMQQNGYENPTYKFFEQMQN
Sequence of UniProt Q9NQC3 (whole entry, looked up): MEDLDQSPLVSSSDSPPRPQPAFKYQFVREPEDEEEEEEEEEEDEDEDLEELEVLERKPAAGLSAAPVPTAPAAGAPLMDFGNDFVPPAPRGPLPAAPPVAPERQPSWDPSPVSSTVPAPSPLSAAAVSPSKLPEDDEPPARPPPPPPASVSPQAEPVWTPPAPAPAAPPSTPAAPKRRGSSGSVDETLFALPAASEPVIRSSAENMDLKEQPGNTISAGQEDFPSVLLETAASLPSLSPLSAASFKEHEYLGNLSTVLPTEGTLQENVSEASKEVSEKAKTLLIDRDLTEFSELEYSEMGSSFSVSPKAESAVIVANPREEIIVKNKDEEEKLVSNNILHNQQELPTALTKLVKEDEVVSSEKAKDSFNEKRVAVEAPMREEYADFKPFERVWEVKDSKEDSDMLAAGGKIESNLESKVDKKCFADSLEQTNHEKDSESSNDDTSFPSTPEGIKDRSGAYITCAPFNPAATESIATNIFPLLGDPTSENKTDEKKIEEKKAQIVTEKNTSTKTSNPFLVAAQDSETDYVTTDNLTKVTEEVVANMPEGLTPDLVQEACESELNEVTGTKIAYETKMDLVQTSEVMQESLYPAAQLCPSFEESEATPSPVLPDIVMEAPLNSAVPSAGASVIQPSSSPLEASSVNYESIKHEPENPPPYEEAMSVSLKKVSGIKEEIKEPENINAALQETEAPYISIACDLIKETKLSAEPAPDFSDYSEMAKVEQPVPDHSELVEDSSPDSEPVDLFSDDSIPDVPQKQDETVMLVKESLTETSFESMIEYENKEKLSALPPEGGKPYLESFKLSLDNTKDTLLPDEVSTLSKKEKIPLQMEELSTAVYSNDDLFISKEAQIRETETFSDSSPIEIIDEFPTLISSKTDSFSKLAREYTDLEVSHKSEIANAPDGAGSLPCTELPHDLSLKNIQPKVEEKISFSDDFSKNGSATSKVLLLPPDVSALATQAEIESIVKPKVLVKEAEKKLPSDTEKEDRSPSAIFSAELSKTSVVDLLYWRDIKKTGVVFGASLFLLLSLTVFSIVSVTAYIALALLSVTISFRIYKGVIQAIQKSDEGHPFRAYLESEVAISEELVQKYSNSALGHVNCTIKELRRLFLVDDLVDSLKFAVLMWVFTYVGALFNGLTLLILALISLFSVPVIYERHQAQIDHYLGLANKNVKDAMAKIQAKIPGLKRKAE

Fc1ccc(Nc2nc(NC3CCCCC3)c3ccccc3n2)cc1F — maximal inhibition (Beta-2 adrenergic receptor (ADRB2, Homo sapiens, UniProt P07550, L155C); β-arrestin2 recruitment, antagonist, BRET; mutant L155C; reference: isoprenaline maximal response): -1.3%
CCCCCCCO[C@H]1O[C@H](CO)[C@@H](O)[C@H](O)[C@@H]1O — ΔG (Type 1 fimbrin D-mannose specific adhesin, lectin domain (fimH, Escherichia coli K-12, UniProt P08191); binding, isothermal titration calorimetry; 37 °C, global fit of two titrations): -10.6 kcal/mol
CCCCCCCCCCCCCCCC(=O)N[C@@H](CCCNC(=N)N)C(=O)NCCCC[C@H](NC(=O)[C@H](CCC(N)=O)NC(=O)[C@H](Cc1c[nH]cn1)NC(=O)[C@H](CCCC)NC(=O)[C@H](CC(C)C)NC(=O)[C@H](CCC(N)=O)NC(=O)[C@@H](NC(=O)[C@H](CCC(=O)O)NC(=O)C(C)(C)NC(=O)[C@@H](NC(=O)C1(N)CCCC1)C(C)C)[C@@H](C)CC)C(N)=O — Emax (normalized AUC) (PTH1R; cAMP response, agonist, GloSensor cAMP; GP-2.3; washout phase): 101 ± 2%
Cc1nc(-c2ccc(C(C)N3CCOCC3)cc2)c(Cl)c(=O)[nH]1 (stereo not shown) — luminescence (B4GALT1; enzyme activity, inhibitor, UDP-Glo; 10 µM; lower means stronger inhibition): 67200 a.u.
CCN(CC)C(CO)c1cccc2c(C)c(C)oc12 (stereo not shown) — fold change (Lysophosphatidic acid receptor 1 (LPAR1, Homo sapiens, UniProt Q92633); G-protein dissociation, agonist, NanoBiT; HEK-293T; 10 nM, wild-type receptor; reference: baseline luminescence): 0.916 and 0.944 and 0.737 and 0.671 and 0.736 and 0.658
Cc1nc(CCNC(=O)c2cccc(-c3cccc(=O)[nH]3)c2)nc2c1CCC2 — luminescence (B4GALT1; enzyme activity, inhibitor, UDP-Glo; 100 µM; lower means stronger inhibition): 87700 a.u.
CC(=O)N[C@@H](CO)C(=O)N[C@H](C(=O)N1CCC[C@H]1C(=O)N[C@@H](CC(=O)O)C(=O)COC(=O)c1c(C)cccc1C)C(C)(C)C — kinact/KI (CASP3; enzyme activity, inhibitor): 229000 M⁻¹ s⁻¹
CCCCCNC(=O)C1C(O)C(O)C(O)C(CO)N1CCCC (stereo not shown) — selectivity ratio (GBA2; inhibitor, 4MU-β-D-glucopyranoside; HEK293T homogenates overexpressing GBA2; reference: GCS IC50 over GBA2 IC50): 200
CC(=O)N[C@H](C(=O)N[C@@H](CCC(=O)O)C(=O)N[C@@H](CO)C(=O)N[C@@H](CC(=O)O)C(=O)COC(=O)c1c(C)cccc1C)[C@@H](C)O — kinact/KI (CASP3; enzyme activity, inhibitor): 92100 M⁻¹ s⁻¹
CCCCCC(O)/C=C/C=O (stereo not shown) — isoTOP-ABPP competition ratio (Reticulon-4 (RTN4, Homo sapiens, UniProt Q9NQC3); competitive isoTOP-ABPP; Ramos soluble proteome; 100 µM, added: iodoacetamide probe; reference: DMSO over compound-treated, higher = stronger cysteine blockade): 10
C#CCOC(=O)[C@]1(C)C=C(C(=O)OC(C)(C)C)C(=O)CC1 — normalized luminescence (Mitogen-activated protein kinase 14 (MAPK14, Homo sapiens, UniProt Q16539); kinase activity, Kinase-Glo; concentration not given): -0.058
C=CC(=O)N1CCCC(n2c(=O)c3ncccc3n(Cc3ccc(Oc4ccccc4)cc3)c2=O)C1 (stereo not shown) — melting temperature (Rho GTPase-activating protein 25 (ARHGAP25, Homo sapiens, UniProt P42331); thermal proteome profiling, refers to: 25; replicate 2): 48.7 °C
OC[C@@H]1[C@@H](O)[C@H](O)[C@@H](O)CN1CCCCCCC12CC3CC(CC(C3)C1)C2 — selectivity ratio (GBA2; inhibitor, 4MU-β-D-glucopyranoside; HEK293T homogenates overexpressing GBA2; reference: GCS IC50 over GBA2 IC50): 4000
CC(=O)N[C@@H](CC(=O)O)C(=O)N[C@@H](CCCC(=O)O)C(=O)N[C@@H](CC(C)C)C(=O)N[C@@H](CC(=O)O)C(=O)COC(=O)c1c(C)cccc1C — kinact/KI (CASP3; enzyme activity, inhibitor): 4.14e+06 M⁻¹ s⁻¹
Cc1cnc(Nc2ccc3c(c2)CCN(C(=O)/C=C/C(=O)c2ccc(Cl)cc2)C3)nc1-c1cnn(C(C)C)c1 — selectivity ratio (Tyrosine-protein kinase JAK2 (JAK2, Homo sapiens, UniProt O60674); ADP-Glo; reference: IC50 JAK3 over IC50 JAK2): > 73.2
CC(=O)N[C@H](CCc1ccccc1)C(=O)N[C@@H](CCC(=O)O)C(=O)N[C@@H](CCC(N)=O)C(=O)N[C@@H](CC(=O)O)C(=O)COC(=O)c1c(C)cccc1C — kinact/KI (CASP3; enzyme activity, inhibitor): 12000 M⁻¹ s⁻¹
Nc1nc(SCc2ccc(Cl)cc2)nn1S(=O)(=O)c1ccc2c(c1)CCO2 — probe labeling increase (Lysophospholipase-like protein 1 (LYPLAL1, Homo sapiens, UniProt Q5VWZ2); enzyme activity, activator, gel-based ABPP; purified protein; concentration not given, added: FP-rhodamine; reference: DMSO): 2.5 fold
CC(C)CCC[C@@H](C)[C@H]1CC[C@H]2[C@@H]3CC=C4C[C@@H](OCCCCCN5C[C@H](O)[C@@H](O)[C@H](O)[C@@H]5CO)CC[C@]4(C)[C@H]3CC[C@]12C — selectivity ratio (GBA2; inhibitor, 4MU-β-D-glucopyranoside; HEK293T homogenates overexpressing GBA2; reference: GCS IC50 over GBA2 IC50): 50
O=C1c2sc(-c3ccc(N4CCC(F)C4)nc3F)nc2CCN1c1cccnc1 (stereo not shown) — specific binding (Amyloid-beta precursor protein, amyloid-beta insoluble aggregates (APP, Homo sapiens, UniProt P05067); radioligand filter binding; AD brain insoluble fraction; 100 nM; higher = more binding): 1150 a.u. and 692 a.u.
OC[C@@H]1[C@@H](O)[C@H](O)[C@@H](O)CN1CCCCCOCC12CC3CC(C1)CC(COCCCCCN1C[C@H](O)[C@@H](O)[C@H](O)[C@H]1CO)(C3)C2 — selectivity ratio (GBA2; inhibitor, 4MU-β-D-glucopyranoside; HEK293T homogenates overexpressing GBA2; reference: GCS IC50 over GBA2 IC50): 2000
CCCC[C@H](NC(=O)[C@H](CC(C)C)NC(=O)[C@H](CCC(N)=O)NC(=O)[C@@H](NC(=O)[C@H](CCC(=O)O)NC(=O)C(C)(C)NC(=O)[C@@H](NC(=O)C1(N)CCCC1)C(C)C)[C@@H](C)CC)C(=O)N[C@@H](Cc1c[nH]cn1)C(=O)N[C@@H](CCC(N)=O)C(=O)N[C@@H](CCCCNC(=O)[C@H](CCCNC(=N)N)NC(=O)CCCCCCCCCCCCCCCCC(=O)O)C(N)=O — Emax (normalized AUC) (PTH1R; cAMP response, agonist, GloSensor cAMP; GP-2.3; washout phase): 136 ± 30%
CCCCCCCOCCCCCN1C[C@H](O)[C@@H](O)[C@H](O)[C@H]1CO — selectivity ratio (GBA2; inhibitor, 4MU-β-D-glucopyranoside; HEK293T homogenates overexpressing GBA2; reference: GCS IC50 over GBA2 IC50): 20
CCc1ccc2oc(=O)cc(Cn3ccnc3)c2c1 — agonist activity (Alpha-1B adrenergic receptor (ADRA1B, Homo sapiens, UniProt P35368); intracellular Ca2+ mobilization, agonist; COS-7; 500 µM; reference: 3 µM ionomycin): 18.6 ± 8.26%
Cc1cc(O)cc(C2CCN(Cc3ccc(-c4ccccc4C(=O)O)o3)C2)n1 (stereo not shown) — luminescence (B4GALT1; enzyme activity, inhibitor, UDP-Glo; 10 µM; lower means stronger inhibition): 53500 a.u.
CC(=O)N[C@@H](Cc1ccc(I)cc1)C(=O)N[C@@H](CCC(=O)O)C(=O)N[C@H](C(=O)N[C@@H](CC(=O)O)C(=O)COC(=O)c1c(C)cccc1C)[C@@H](C)O — kinact/KI (CASP3; enzyme activity, inhibitor): 156000 M⁻¹ s⁻¹
OC[C@@H]1[C@@H](O)[C@H](O)[C@@H](O)CN1CCCCCOCc1ccc(-c2cccc(F)c2)cc1 — selectivity ratio (GBA2; inhibitor, 4MU-β-D-glucopyranoside; HEK293T homogenates overexpressing GBA2; reference: GBA1 IC50 over GBA2 IC50): 25
CC(C)[C@@H]1NC(=O)[C@H](Cc2ccccc2)NC(=O)CSC[C@@H](C(N)=O)NC(=O)[C@H](CCC(=O)O)NC(=O)[C@H](CO)NC(=O)[C@H](Cc2c[nH]c3cccc(Cl)c23)NC(=O)[C@H](C2CCCCC2)NC(=O)[C@H](C(C)C)NC(=O)[C@H](Cc2ccc(O)cc2)NC(=O)[C@H](CC(=O)O)NC(=O)[C@H](Cc2c[nH]c3ccccc23)NC(=O)[C@H](Cc2ccc(N)nc2)NC(=O)[C@H](Cc2c[nH]c3ccc(Cl)cc23)NC(=O)[C@H](CCC(=O)O)NC1=O — remaining activity (Interleukin-1 receptor-like 2 (IL1RL2, Homo sapiens, UniProt Q9HB29); reporter gene (SEAP), inhibitor, HEK-Blue IL-36R reporter; HEK-Blue IL-36R cells; 0.0017 µM, 6 h, added: IL-36β 30 ng/mL): 101%
C[C@@H](Nc1nc(N[C@H](C)C(F)(F)F)nc(-c2cccc(Cl)n2)n1)C(F)(F)F — maximal inhibition (Isocitrate dehydrogenase [NADP] cytoplasmic (IDH1, Homo sapiens, UniProt O75874, R132H); 2-HG production, inhibitor; BT142 neurospheres): 88%
N#CN1CC[C@H](C(=O)Nc2nc3c(s2)CN(C(=O)Cn2cc(CNC(=O)CCCC[C@@H]4SC[C@@H]5NC(=O)N[C@@H]54)nn2)CC3)C1 — iBAQ abundance (Thymidylate synthase (TYMS, Homo sapiens, UniProt P04818); probe binding, affinity probe, neutravidin pull-down LC-MS/MS; HEK293T, cell lysate; 5 µM, 1 h, single replicate, unit not given; higher = more pulled down): 3.44e+08 and 1.65e+08 and 1.91e+08
OC[C@@H]1[C@@H](O)[C@H](O)[C@@H](O)CN1CCCCCOCc1ccc(-c2ccc3c(c2)OCCO3)cc1 — selectivity ratio (GBA2; inhibitor, 4MU-β-D-glucopyranoside; HEK293T homogenates overexpressing GBA2; reference: GCS IC50 over GBA2 IC50): 1
COc1ccc(Cn2nccc2NC(=O)C(C(F)(F)F)C(F)(F)F)cc1 — IC50 (Chymotrypsinogen A (Bos taurus, UniProt P00766); enzyme activity, inhibitor): inactive
OC[C@@H]1[C@@H](O)[C@H](O)[C@@H](O)CN1CCCCCOCc1ccc(-c2ccncc2)cc1 — selectivity ratio (GBA2; inhibitor, 4MU-β-D-glucopyranoside; HEK293T homogenates overexpressing GBA2; reference: GBA1 IC50 over GBA2 IC50): 200
O=C(Cc1ccc(OCc2ccccc2)cc1)NC1(C(=O)O)CCN(C(=O)c2ccc(-c3cccc(Cl)c3)cc2)CC1 — activity vs control ([Pyruvate dehydrogenase (acetyl-transferring)] kinase isozyme 2, mitochondrial (PDK2, Homo sapiens, UniProt Q15119); enzyme activity, inhibitor; 10 µM): 104%
COC1CN([C@H]2CC[C@H]([C@@]3(C)Oc4c(Cl)cc(C(=O)NCc5c(SC)cc(C)[nH]c5=O)c(C)c4O3)CC2)C1 — log2 fold change (RNA-seq, refers to: RYR1; human, whole blood; dose not given, 24 h; reference: pretreatment baseline): 1.16
